Experimental data gathered from unrelated publications.
Protocols differ between the studies behind these lines.
Method: steady-state kinetics
B1: FMO3 V257M (Homo sapiens, UniProt P31513); chain GKKVAIIGAGVSGLASIRSCLEEGLEPTCFEKSNDIGGLWKFSDHAEEGRASIYKSVFSNSSKEMMCFPDFPFPDDFPNFMHNSKIQEYIIAFAKEKNLLKYIQFKTFVSSVNKHPDFATTGQWDVTTERDGKKESAVFDAVMVCSGHHVYPNLPKESFPGLNHFKGKCFHSRDYKEPGVFNGKRVLVVGLGNSGCDIATELSRTAEQVMISSRSGSWVMSRVWDNGYPWDMLLVTRFGTFLKNNLPTAISDWLYMKQMNARFKHENYGLMPLNGVLRKEPVFNDELPASILCGIVSVKPNVKEFTETSAIFEDGTIFEGIDCVIFATGYSFAYPFLDESIIKSRNNEIILFKGVFPPLLEKSTIAVIGFVQSLGAAIPTVDLQSRWAAQVIKGTCTLPSMEDMMNDINEKMEKKRKWFGKSETIQTDYIVYMDELSSFIGAKPNIPWLFLTDPKLAMEVYFGPCSPYQFRLVGPGQWPGARNAILTQWDRSLKPMQTRVVGRLQKPCFFFHWLKLFAIPILLIAVFLVLT
B2: bga E532Q (Niallia circulans, UniProt E5RWQ2); chain GNSVSYDGERRVNFNENWRFQRETNGSIAGAQNPGFDDSSWRKLNLPHDWSIELDFNKNSLATHEGGYLDGGIGWYRKTFTIPESMKGKRISLDFDGVYMNSTTYLNGEVLGTYPFGYNAFSYDISDKLYKDGRANVLVVKVNNTQPSSRWYSGSGIYRNVYLTVTDPIHVARYGTFVTTPNLEKSIKEDRADVNIKTKISNDAAEAKQVKIKSTIYDGAGNTVQTVETEEKTAAAGTVTPFEQNTVIKQPKLWSIDKPYRYNLVTEVIVGGQTVDTYETKFGVRYFKFDENEGFSLNGEYMKLHGVSMHHDLGALGAATNARGVERQMQIMKDMGVNAIRVTHNPASPELLEAANKLGLFIIEEAFDSWAQSKKPYDYGRFFNAWAEHDIKEMVDRGKNEPAIIMWSIGNEIYDTTNAAGVETARNLVGWVKEIDTTRPTTIGEDKTRGDKVNVTPINSYIKEIFNIVDVVGLNYSENNYDGYHKQNPSWKLYGSQTSSATRSRGVYTHPYQYNQSTKYADLQQSSYDNDYVGWGRTAEDAWKYDRDLKHIAGQFIWTGFDYIGEPTPYYNSYPAKSSYFGAVDTAGFPKDIFYYYQSQWKKEPMVHLLPHWNWKEGEKVRVLAYTNASKVELVLNGESLGEKNYDNKQTSWGAPYKETKDGKTYLEWAVPFKPGKLEAVAKDENGKVIARDQVVTAGEPASVRLTADRKVVKADGTDLSFITADIVDSKGIVVPDADHLITFNVTGQGELAGVDNGNASSVERYKDNKRKAFSGKALAIVQSSKLSGKITVHASVAGLSSDSTSVFTVTP
B3: CMBL (Homo sapiens, UniProt Q96DG6); chain MANEAYPCPCDIGHRLEYGGLGREVQVEHIKAYVTKSPVDAGKAVIVIQDIFGWQLPNTRYIADMISGNGYTTIVPDFFVGQEPWDPSGDWSIFPEWLKTRNAQKIDREISAILKYLKQQCHAQKIGIVGFCWGGTAVHHLMMKYSEFRAGVSVYGIVKDSEDIYNLKNPTLFIFAENDVVIPLKDVSLLTQKLKEHCKVEYQIKTFSGQTHGFVHRKREDCSPADKPYIDEARRNLIEWLNKYM
B4: ileS (Streptococcus pneumoniae, UniProt Q04JB0); chain MKLKDTLNLGKTEFPMRAGLPTKEPVWQKEWEYAKLYQRRQELNQGKPHFTLHDGPPYANGNIHVGHAMNKISKDIIVRSKSMSGFYAPFIPGWDTHGLPIEQVLSKQGVKRKEMDLVEYLKLCREYALSQVDKQREDFKRLGVSGDWENPYVTLTPDYEAAQIRVFGEMANKGYIYRGAKPVYWSWSSESALAEAEIEYHDLVSTSLYYANKVKDGKGVLDTDTYIVVWTTTPFTITASRGLTVGADIDYVLVQPAGEARKFVVAAELLTSLSEKFGWADVQVLETYRGQELNHIVTEHPWDTAVEELVILGDHVTTDSGTGIVHTAPGFGEDDYNVGIANNLEVAVTVDERGIMMKNAGPEFEGQFYEKVVPTVIEKLGNLLLAQEEISHSYPFDWRTKKPIIWRAVPQWFASVSKFRQEILDEIEKVKFHSEWGKVRLYNMIRDRGDWVISRQRAWGVPLPIFYAEDGTAIMVAETIEHVAQLFEEHGSSIWWERDAKDLLPEGFTHPGSPNGEFKKETDIMDVWFDSGSSWNGVVVNRPELTYPADLYLEGSDQYRGWFNSSLITSVANHGVAPYKQILSQGFALDGKGEKMSKSLGNTIAPSDVEKQFGAEILRLWVTSVDSSNDVRISMDILSQVSETYRKIRNTLRFLIANTSDFNPAQDTVAYDELRSVDKYMTIRFNQLVKTIRDAYADFEFLTIYKALVNFINVDLSAFYLDFAKDVVYIEGAKSLERRQMQTVFYDILVKITKLLTPILPHTAEEIWSYLEFETEDFVQLSELPEVQTFANQEEILDTWAAFMDFRGQAQKALEEARNAKVIGKSLEAHLTVYPNEVVKTLLEAVNSNVAQLLIVSELTIAEGPAPEAALSFEDVAFTVERATGEVCDRCRRIDPTTAERSYQAVICDHCASIVEENFAEAVAEGFEEK
B5: FMO3 E158K/E308G (Homo sapiens, UniProt P31513); chain GKKVAIIGAGVSGLASIRSCLEEGLEPTCFEKSNDIGGLWKFSDHAEEGRASIYKSVFSNSSKEMMCFPDFPFPDDFPNFMHNSKIQEYIIAFAKEKNLLKYIQFKTFVSSVNKHPDFATTGQWDVTTERDGKKESAVFDAVMVCSGHHVYPNLPKKSFPGLNHFKGKCFHSRDYKEPGVFNGKRVLVVGLGNSGCDIATELSRTAEQVMISSRSGSWVMSRVWDNGYPWDMLLVTRFGTFLKNNLPTAISDWLYVKQMNARFKHENYGLMPLNGVLRKEPVFNDELPASILCGIVSVKPNVKEFTGTSAIFEDGTIFEGIDCVIFATGYSFAYPFLDESIIKSRNNEIILFKGVFPPLLEKSTIAVIGFVQSLGAAIPTVDLQSRWAAQVIKGTCTLPSMEDMMNDINEKMEKKRKWFGKSETIQTDYIVYMDELSSFIGAKPNIPWLFLTDPKLAMEVYFGPCSPYQFRLVGPGQWPGARNAILTQWDRSLKPMQTRVVGRLQKPCFFFHWLKLFAIPILLIAVFLVLT
B6: protein (UniProt Q52060); chain MNQKLKVAIIGSGNIGTDLMIKVLRNAKYLEMGAMVGIDAASDGLARAQRMGVTTTYAGVEGLIKLPEFADIDFVFDATSASAHVQNEALLRQAKPGIRLIDLTPAAIGPYCVPVVNLEEHLGKLNVNMVTCGGQATIPMVAAVSRVAKVHYAEIVASISSKSAGPGTRANIDEFTETTSKAIEVIGGAAKGKAIIIMNPAEPPLIMRDTVYVLSAAADQAAVAASVAEMVQAVQAYVPGYRLKQQVQFDVIPESAPLNIPGLGRFSGLKTSVFLEVEGAAHYLPAYAGNLDIMTSAALATAERMAQSMLNA
B7: BPHL (Homo sapiens, UniProt Q86WA6); chain SVTSAKVAVNGVQLHYQQTGEGDHAVLLLPGMLGSGETDFGPQLKNLNKKLFTVVAWDPRGYGHSRPPDRDFPADFFERDAKDAVDLMKALKFKKVSLLGWSDGGITALIAAAKYPSYIHKMVIWGANAYVTDEDSMIYEGIRDVSKWSERTRKPLEALYGYDYFARTCEKWVDGIRQFKHLPDGNICRHLLPRVQCPALIVHGEKDPLVPRFHADFIHKHVKGSRLHLMPEGKHNLHLRFADEFNKLAEDFLQ
B8: UGT1A9 (Homo sapiens, UniProt O60656); chain GKLLVVPMDGSHWFTMRSVVEKLILRGHEVVVVMPEVSWQLGRSLNCTVKTYSTSYTLEDLDREFKAFAHAQWKAQVRSIYSLLMGSYNDIFDLFFSNCRSLFKDKKLVEYLKESSFDAVFLDPFDNCGLIVAKYFSLPSVVFARGILCHYLEEGAQCPAPLSYVPRILLGFSDAMTFKERVRNHIMHLEEHLLCHRFFKNALEIASEILQTPVTEYDLYSHTSIWLLRTDFVLDYPKPVMPNMIFIGGINCHQGKPLPMEFEAYINASGEHGIVVFSLGSMVSEIPEKKAMAIADALGKIPQTVLWRYTGTRPSNLANNTILVKWLPQNDLLGHPMTRAFITHAGSHGVYESICNGVPMVMMPLFGDQMDNAKRMETKGAGVTLNVLEMTSEDLENALKAVINDKSYKENIMRLSSLHKDRPVEPLDLAVFWVEFVMRHKGAPHLRPAAHDLTWYQYHSLDVIGFLLAVVLTVAFITFKCCAYGYRKCLGKKGRVKKAHKSKTH
B9: enzyme R228K (Arabidopsis thaliana, UniProt O82390); chain MNARALLCSSNIHSLYTSNRPPEKTSSSRSLRNLKPSPKSLRVWIYPRNRSSVFRVLVRSSDKSESSNSYYVEGDKVSGNNDVVSDSPSSIVLPWWEEFPKRWVIVLLCFSAFLLCNMDRVNMSIAILPMSAEYGWNPATVGLIQSSFFWGYLLTQIAGGIWADTVGGKRVLGFGVIWWSIATILTPVAAKLGLPYLLVVRAFMGVGEGVAMPAMNNILSKWVPVQEKSRSLALVYSGMYLGSVTGLAFSPFLIHQFGWPSVFYSFGSLGTVWLTLWLTKAESSPLEDPTLLPEERKLIADNCASKEPVKSIPWRLILSKPPVWALISCHFCHNWGTFILLTWMPTYYHQVLKFNLMESGLLSVFPWMTMAISANAGGWIADTLVSRGFSVTNVRKIMQTIGFLGPAFFLTQLKHIDSPTMAVLCMACSQGTDAFSQSGLYSNHQDIAPRYSGVLLGLSNTAGVLAGVLGTAATGHILQHGSWDDVFTISVGLYLVGTVIWNLFSTGEKIID
Chain of UniProt Q949Q0 (whole entry, looked up): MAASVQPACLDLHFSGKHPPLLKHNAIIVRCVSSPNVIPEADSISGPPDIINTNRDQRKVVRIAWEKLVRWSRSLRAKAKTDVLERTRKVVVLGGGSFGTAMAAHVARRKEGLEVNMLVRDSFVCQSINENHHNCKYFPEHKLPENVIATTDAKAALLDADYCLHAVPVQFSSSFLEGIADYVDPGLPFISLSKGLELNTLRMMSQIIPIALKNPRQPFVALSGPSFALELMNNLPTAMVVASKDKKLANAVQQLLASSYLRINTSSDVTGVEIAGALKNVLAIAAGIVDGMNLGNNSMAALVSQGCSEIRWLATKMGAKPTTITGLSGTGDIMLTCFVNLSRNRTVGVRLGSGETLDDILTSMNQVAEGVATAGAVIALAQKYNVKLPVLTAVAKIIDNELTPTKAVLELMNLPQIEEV
Chain of UniProt P00813 (whole entry, looked up): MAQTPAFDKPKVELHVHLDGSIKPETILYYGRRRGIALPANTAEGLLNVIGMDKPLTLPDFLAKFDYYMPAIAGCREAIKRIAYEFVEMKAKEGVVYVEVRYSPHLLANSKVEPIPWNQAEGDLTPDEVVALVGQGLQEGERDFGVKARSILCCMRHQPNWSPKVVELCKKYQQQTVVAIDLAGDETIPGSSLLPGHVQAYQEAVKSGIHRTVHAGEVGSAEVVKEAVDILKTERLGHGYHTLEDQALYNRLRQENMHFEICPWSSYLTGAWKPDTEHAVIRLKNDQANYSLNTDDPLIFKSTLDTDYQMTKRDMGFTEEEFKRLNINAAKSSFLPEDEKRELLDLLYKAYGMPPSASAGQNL
Chain of UniProt H6U1I8 (whole entry, looked up): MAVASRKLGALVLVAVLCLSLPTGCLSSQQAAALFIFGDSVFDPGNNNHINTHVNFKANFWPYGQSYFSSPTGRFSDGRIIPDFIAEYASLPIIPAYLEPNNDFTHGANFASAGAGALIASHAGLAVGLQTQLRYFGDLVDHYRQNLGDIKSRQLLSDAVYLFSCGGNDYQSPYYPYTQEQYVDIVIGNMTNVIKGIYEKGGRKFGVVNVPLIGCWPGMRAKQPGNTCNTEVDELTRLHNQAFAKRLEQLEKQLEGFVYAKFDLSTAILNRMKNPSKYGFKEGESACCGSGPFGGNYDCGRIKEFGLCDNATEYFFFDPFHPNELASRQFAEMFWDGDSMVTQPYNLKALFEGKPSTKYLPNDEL

| Molecule | substrate | test system | setting | Vmax |
| --- | --- | --- | --- | --- |
| B1 (FMO3 V257M) | CN1CCC[C@H]1c1cccnc1 | HEK293 microsomes | 37 °C, not purified, together with: NADPH regenerating system | 1.18e-05 µmol/min/mg |
| B2 (bga E532Q) | O=[N+]([O-])c1ccccc1O[C@@H]1O[C@H](CO)[C@H](O)[C@H](O)[C@H]1O | – | pH 6, 40 °C, low-substrate phase, biphasic | 0.2 µmol/min/mg |
| B3 (CMBL) | Cc1oc(=O)oc1COC(=O)[C@@H]1N2C(=O)[C@@H](NC(=O)[C@H](N)c3ccccc3)[C@H]2SC1(C)C | lysate | pH 7.4, 37 °C, not purified | 0.004 µmol/min/mg |
| ADA (Homo sapiens, UniProt P00813) | Nc1ncnc2c1ncn2[C@H]1C[C@H](O)[C@@H](CO)O1 | HEK293, cell homogenate | pH 5.8, 37 °C, not purified | 0.468 µmol/min/mg |
| B4 (ileS) | CC(C)C[C@H](N)C(=O)O | – | pH 7.2, 37 °C, together with: ATP 2 mM | 0.0015 µM/min/mg |
| B5 (FMO3 E158K/E308G) | CN1CCC[C@H]1c1cccnc1 | HEK293 microsomes | 37 °C, not purified, together with: NADPH regenerating system | 3.16e-05 µmol/min/mg |
| oxalate oxidase (Gelatoporia subvermispora, UniProt Q5ZH56) | O=C(O)C(=O)O | – | pH 4, together with: oxalate 0.01-90 mM | 18.2 µmol/min/mg |
| enzyme (Arabidopsis thaliana, UniProt Q949Q0) | O=C(CO)COP(=O)(O)O | – | pH 7.2, 30 °C, apparent | 49.2 µmol/min/mg |
| B6 (protein) | CC=O | cell extract | not purified, together with: CoA | 1.01 µmol/min/mg |
| speG (Vibrio cholerae, UniProt Q9KL03) | CC(=O)SCCNC(=O)CCNC(=O)[C@H](O)C(C)(C)COP(=O)(O)OP(=O)(O)OC[C@H]1O[C@@H](n2cnc3c(N)ncnc32)[C@H](O)[C@@H]1OP(=O)(O)O | – | pH 9, 37 °C | 263 µmol/min/mg |
| enzyme (Candida albicans, UniProt A0A1D8PHX1) | CCCCCCCC/C=C\CCCCCCCC(=O)SCCNC(=O)CCNC(=O)[C@H](O)C(C)(C)COP(=O)(O)OP(=O)(O)OC[C@H]1O[C@@H](n2cnc3c(N)ncnc32)[C@H](O)[C@@H]1OP(=O)(O)O | – | pH 7.4, 37 °C, apparent, not purified | 0.0394 µmol/min/mg |
| B7 (BPHL) | CC(C)[C@H](N)C(=O)NCc1cccc(NC=NN)c1 | – | pH 7.4, 37 °C | 0.00412 µmol/min/mg |
| enzyme (Tanacetum cinerariifolium, UniProt H6U1I8) | C#CCC1=C(C)[C@@H](O)CC1=O | – | pH 7.5, 25 °C | 0.0894 µmol/min/mg |
| B8 (UGT1A9) | COc1ccc(-c2oc3cc(O)cc(O)c3c(=O)c2OC)cc1OCc1ccccc1 | – | pH 7.4, 37 °C | 0.00208 µmol/min/mg |
| enzyme (Scutellaria baicalensis, UniProt A0A146AUQ2) | O=C(O)/C=C/c1ccccc1 | – | pH 7.8, apparent | 10.1 µmol/min/mg |
| B9 (enzyme R228K) | O=P(O)(O)O | – | pH 6.5, 25 °C, apparent, not purified | 0.00457 µmol/min/mg |

A few entries again:
| Molecule | substrate | test system | setting | Vmax |
| --- | --- | --- | --- | --- |
| B6 (protein) | CC=O | cell extract | not purified, together with: CoA | 1.01 µmol/min/mg |
